Experimental data gathered from unrelated publications.
Every numbered part comes from another study and shows a few of its results, in no order.
Sequence of UniProt Q9HAZ1 (whole entry, looked up): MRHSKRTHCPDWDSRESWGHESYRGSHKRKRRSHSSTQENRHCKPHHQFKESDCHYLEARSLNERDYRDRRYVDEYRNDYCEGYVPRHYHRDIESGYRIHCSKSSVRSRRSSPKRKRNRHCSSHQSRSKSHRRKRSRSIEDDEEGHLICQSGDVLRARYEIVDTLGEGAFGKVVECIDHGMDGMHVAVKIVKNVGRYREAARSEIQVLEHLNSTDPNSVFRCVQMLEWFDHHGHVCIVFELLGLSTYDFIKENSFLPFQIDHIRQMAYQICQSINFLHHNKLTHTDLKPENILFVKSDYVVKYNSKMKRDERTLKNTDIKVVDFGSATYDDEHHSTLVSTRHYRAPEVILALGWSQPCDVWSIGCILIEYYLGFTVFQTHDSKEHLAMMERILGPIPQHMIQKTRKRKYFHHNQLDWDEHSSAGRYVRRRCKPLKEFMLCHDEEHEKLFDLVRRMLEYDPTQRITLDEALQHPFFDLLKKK
Sequence of UniProt P29320 (whole entry, looked up): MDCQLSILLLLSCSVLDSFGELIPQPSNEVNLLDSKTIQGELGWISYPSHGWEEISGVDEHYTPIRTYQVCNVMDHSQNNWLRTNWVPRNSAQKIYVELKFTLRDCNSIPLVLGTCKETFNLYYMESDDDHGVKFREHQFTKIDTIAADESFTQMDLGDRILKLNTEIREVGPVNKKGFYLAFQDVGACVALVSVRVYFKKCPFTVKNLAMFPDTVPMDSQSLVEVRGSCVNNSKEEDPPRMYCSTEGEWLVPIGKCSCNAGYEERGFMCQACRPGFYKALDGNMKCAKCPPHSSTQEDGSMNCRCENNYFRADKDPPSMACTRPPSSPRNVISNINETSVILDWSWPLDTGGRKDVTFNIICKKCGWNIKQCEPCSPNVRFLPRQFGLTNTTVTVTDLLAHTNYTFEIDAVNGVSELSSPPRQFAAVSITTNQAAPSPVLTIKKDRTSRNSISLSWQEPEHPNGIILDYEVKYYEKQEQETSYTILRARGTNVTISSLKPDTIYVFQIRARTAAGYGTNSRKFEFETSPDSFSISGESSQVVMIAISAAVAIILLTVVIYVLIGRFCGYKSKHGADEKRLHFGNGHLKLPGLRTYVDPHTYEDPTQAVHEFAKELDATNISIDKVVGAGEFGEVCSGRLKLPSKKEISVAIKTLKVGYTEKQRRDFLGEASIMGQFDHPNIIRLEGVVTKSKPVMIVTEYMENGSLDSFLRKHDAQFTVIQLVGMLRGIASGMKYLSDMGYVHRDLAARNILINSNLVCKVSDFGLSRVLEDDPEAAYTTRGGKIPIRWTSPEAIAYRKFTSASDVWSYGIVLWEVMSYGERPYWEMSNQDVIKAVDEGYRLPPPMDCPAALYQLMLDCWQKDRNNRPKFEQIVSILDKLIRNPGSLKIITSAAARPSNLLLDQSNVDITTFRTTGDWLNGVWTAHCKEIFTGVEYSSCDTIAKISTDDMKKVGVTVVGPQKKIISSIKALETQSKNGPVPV
Sequence of UniProt Q9HC98 (whole entry, looked up): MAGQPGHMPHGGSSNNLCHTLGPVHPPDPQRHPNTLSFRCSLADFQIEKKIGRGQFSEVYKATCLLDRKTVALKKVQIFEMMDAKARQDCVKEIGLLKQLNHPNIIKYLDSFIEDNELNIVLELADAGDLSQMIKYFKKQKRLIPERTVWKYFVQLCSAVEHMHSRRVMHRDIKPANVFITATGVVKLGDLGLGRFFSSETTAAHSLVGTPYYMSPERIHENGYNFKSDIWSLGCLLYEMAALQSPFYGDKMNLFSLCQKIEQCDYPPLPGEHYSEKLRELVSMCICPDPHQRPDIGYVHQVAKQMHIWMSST
Sequence of UniProt P52333 (whole entry, looked up): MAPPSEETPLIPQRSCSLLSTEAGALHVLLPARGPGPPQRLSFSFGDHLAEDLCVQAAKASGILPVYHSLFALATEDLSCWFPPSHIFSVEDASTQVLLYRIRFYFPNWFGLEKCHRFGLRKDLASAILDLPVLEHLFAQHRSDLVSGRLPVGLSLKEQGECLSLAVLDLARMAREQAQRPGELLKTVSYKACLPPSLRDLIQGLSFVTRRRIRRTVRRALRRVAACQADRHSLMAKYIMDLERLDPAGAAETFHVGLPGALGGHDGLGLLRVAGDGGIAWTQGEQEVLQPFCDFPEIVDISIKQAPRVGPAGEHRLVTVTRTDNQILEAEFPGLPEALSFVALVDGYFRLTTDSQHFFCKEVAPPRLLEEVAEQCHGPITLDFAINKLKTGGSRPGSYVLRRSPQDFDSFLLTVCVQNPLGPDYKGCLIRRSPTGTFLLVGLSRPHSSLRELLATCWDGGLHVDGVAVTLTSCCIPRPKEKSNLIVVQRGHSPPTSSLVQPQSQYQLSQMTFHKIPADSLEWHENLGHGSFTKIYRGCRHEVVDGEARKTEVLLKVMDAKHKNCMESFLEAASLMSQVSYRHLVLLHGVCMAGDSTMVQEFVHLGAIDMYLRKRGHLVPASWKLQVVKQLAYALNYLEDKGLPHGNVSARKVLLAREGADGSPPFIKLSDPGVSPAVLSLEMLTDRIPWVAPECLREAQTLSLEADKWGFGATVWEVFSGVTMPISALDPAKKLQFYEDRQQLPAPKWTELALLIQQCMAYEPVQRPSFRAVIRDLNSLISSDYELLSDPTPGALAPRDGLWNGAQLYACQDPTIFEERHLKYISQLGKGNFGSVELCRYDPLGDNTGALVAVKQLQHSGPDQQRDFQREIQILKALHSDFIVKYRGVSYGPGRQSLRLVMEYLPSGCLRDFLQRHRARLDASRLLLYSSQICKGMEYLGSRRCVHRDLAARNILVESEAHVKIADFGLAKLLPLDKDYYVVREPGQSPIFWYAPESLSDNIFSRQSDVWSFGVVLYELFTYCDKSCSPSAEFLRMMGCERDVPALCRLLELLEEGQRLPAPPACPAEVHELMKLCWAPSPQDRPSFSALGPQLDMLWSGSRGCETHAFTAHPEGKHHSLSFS
Sequence of UniProt P11362 (whole entry, looked up): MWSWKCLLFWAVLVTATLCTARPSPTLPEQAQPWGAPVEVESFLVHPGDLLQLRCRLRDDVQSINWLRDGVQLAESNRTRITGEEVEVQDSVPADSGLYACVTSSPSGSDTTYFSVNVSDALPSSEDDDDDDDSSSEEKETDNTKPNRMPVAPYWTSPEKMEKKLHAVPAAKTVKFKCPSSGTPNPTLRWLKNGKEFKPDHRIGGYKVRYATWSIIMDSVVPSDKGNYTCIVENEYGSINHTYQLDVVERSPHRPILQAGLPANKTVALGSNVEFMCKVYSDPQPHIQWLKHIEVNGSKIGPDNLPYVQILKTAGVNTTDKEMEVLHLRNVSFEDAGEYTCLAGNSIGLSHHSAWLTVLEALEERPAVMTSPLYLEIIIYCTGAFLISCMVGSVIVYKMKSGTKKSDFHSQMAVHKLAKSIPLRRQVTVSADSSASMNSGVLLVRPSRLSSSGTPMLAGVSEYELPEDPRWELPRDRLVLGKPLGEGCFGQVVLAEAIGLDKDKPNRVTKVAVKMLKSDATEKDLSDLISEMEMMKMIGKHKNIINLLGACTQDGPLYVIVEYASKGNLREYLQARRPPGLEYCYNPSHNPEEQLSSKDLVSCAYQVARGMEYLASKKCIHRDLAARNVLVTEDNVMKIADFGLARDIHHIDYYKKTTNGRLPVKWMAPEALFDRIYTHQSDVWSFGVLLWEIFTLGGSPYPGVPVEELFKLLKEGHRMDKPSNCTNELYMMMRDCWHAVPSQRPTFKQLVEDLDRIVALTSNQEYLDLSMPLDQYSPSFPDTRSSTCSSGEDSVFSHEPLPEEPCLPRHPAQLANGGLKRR
Sequence of UniProt Q96PN8 (whole entry, looked up): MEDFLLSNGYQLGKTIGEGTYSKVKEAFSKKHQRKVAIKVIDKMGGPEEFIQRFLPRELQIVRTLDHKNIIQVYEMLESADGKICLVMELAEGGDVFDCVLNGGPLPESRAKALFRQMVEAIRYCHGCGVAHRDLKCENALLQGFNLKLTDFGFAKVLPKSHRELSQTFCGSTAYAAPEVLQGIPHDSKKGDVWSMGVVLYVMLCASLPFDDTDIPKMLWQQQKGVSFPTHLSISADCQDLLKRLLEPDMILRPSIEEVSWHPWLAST
Sequence of UniProt Q8L7G0 (whole entry, looked up): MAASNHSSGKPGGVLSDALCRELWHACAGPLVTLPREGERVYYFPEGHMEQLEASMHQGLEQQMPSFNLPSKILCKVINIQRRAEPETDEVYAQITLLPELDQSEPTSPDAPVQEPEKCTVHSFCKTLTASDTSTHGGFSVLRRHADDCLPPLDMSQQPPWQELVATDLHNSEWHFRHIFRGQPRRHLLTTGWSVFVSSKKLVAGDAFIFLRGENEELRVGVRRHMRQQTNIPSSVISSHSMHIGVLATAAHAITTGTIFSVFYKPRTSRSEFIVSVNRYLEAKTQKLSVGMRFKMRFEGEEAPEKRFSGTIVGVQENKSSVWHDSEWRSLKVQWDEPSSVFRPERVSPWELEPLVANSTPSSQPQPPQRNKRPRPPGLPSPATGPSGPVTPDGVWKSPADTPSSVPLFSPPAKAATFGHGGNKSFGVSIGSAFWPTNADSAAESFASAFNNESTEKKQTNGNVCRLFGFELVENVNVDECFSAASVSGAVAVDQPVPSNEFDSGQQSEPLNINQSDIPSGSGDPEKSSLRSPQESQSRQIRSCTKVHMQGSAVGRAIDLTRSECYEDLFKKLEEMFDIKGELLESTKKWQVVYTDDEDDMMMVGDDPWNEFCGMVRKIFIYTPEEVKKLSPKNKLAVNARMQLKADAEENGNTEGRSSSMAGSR

Study 1
Molecule: B1 (IAA27)
Technique: two-hybrid
Direction: higher = firmer interaction
B1: IAA27 (Arabidopsis thaliana, UniProt Q9ZSY8); chain MSVSVAAEHDYIGLSEFPTMEATTMSDKTKTRDNNNGLNFKATELRLGLPGSESPERVDSRFLALNKSSCPVSGAKRVFSDAINDSNKWVFSPGSTTATGDVGSGSGPRTSVVKDGKSTTFTKPAVPVKEKKSSATAPASKAQVVGWPPIRSFRKNSMASSQSQKPGNNSETEEAEAKSGPEQPCLYVKVSMEGAPYLRKIDLKTYKSYLELSSALEKMFSCFTIGQFGSHGGCGRDGLNESRLTDLLRGSEYVVTYEDKDSDWMLVGDVPWEMFICSCKKLRIMKSSEAIGLAPRVMEKCRSRN
ARF7 1030-1164 (Arabidopsis thaliana, UniProt P93022); reference: out of 4 tests — positive tests: 4.
IAA33 (Arabidopsis thaliana, UniProt Q9FKM7); reference: out of 4 tests — positive tests: 2.
The positive tests was 2 (IAA28 (Arabidopsis thaliana, UniProt Q9XFM0); reference: out of 2 tests).
The positive tests was 4 (IAA34 (Arabidopsis thaliana, UniProt Q9C5X0); reference: out of 4 tests).
ARF1 538-665 (Arabidopsis thaliana, UniProt Q8L7G0); reference: out of 4 tests — positive tests: 0.

Study 2
Target: RING finger protein unkempt homolog, zinc fingers 1-6, GST-SBP tag (UNK, Homo sapiens, UniProt Q9C0B0, residues 30-357)
Sequence of UniProt Q9C0B0 (30-357, looked up): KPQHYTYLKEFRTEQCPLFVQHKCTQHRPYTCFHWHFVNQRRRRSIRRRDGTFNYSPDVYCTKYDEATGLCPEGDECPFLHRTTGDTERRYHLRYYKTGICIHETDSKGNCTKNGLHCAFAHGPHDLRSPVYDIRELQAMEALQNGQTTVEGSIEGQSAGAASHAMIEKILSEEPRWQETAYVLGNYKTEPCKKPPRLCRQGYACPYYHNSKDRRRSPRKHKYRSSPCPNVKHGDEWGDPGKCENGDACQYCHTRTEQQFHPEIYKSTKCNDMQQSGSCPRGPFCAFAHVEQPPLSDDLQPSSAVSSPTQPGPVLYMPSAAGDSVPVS
Technique: RNA Bind-n-Seq
Form: RNA
Matrix: in vitro
Tested at: not given
Setting: RNA with constant flanks, human and mouse sites, ends assumed
Reference: input RNA pool
Direction: higher = stronger binding
The bound/input enrichment of `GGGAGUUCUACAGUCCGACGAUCGAACCAAUUAUCCCUCGAGGUGCCAGGCAAGGCCCCAGCCAACUCAAGAGAACCUGCAGCAUCUUUGCAUAUGAAGACAUCAAGGAGGUGCAUAAAAGGAGAUAUCUCCUCCAGCCUAUCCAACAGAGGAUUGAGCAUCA` is reported as 0.227 ratio.
The bound/input enrichment of `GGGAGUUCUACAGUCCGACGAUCUCGCUCUGCCAUCCACCCACCGCAGCAGCAUCUUCAAGAAUAAAGCAAUAUAGUUUACUACAUUUUUUUUUAAAAUUGAAGGUCAGCCAUGCUUUCUGUAUUAUAUUGCAUAUGAAAUUGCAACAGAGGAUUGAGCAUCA` is reported as 0.367 ratio.
With `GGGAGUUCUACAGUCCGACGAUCCUUGUGCAUGCCCCACCUAUGCAACUGGGAUUCCCAUCCCUGCACUCGUUCAUCAAGGAACAUAGUCUUCAGGUAUCCCCCAGCUUAGAGAAAGGGGCUAAGGCAGACACAGGCCUUGAUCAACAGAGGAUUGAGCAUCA` the bound/input enrichment was 0.262 ratio.
The bound/input enrichment of `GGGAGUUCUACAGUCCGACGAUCUUCUGUUUGUGCCCAGUGAUGUCUUUCCUUGUCUUCCUUUUGACUGUAUUUUAAGAUUACUUUAGAUGAUUCUGUGCAAUGUUUAUGACCUUUCCUACCCUUCUAAUGUUCAGUUAACACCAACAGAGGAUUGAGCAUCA` is reported as 0.847 ratio.
`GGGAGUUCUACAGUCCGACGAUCUGGAAAAACUGAAGCCCGAGCCUGCCCACAGCUAUGCUUUGGCCUCUCCAGCAGGGUGCUCCUGCUCUGCACUCCAGAAACACCCUGACAGGCUCAGAGAGGAGAUGGAAACUGACAUACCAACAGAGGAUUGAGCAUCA` has a bound/input enrichment of 0.269 ratio.
`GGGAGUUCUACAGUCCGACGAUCCUAUGCCUAACAGAGCCCCAGUACAACUAUUUUGCAGAAUGGCUGUUACCCUAGAAUUACUAUAGCACAUAUUGAGAUAUAGUUGUACUCCCUAGUAGAUAGGAACUGACCCCAACAAUACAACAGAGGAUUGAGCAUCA` has a bound/input enrichment of 4.25 ratio.
`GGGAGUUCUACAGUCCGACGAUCGGCACUGCACAUGAAGAUGCUGCAGCCUCCCCGUGUGGUCAUUCAAGAUCAACAGAAGGUUCCCUUCACCCUGGGGAUGUACAUAUCCAAAUAAACUCCGGACCAAAAGAAUAUUCUGAACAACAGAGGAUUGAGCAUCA` gave a bound/input enrichment of 0.178 ratio.
With `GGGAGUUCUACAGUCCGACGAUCUUUUUAUUGUACAUUUAUUUUUUGUCCUUAUAUACUGGAGUGUGAUCCAAGUUGUACAUGAAUCAAAAAGAUGGUGUUACAUUUGUAUUACGCUGGGAAUUCUUGCUGGAGGGAUUGGAGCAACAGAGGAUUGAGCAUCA` the bound/input enrichment was 1.13 ratio.

Study 3
SMILES: Nc1[nH]nc2nnc(-c3c(-c4ccccc4)nn4ccccc34)cc12
Effect on: enzyme activity
Action: inhibitor
Tested at: 0.5 µM
Reference: control
For GSK3B (Homo sapiens, UniProt P49841): remaining activity read 109%.
GRK7 (Homo sapiens, UniProt Q8WTQ7) — remaining activity: 96.7%.
MST1R (Homo sapiens, UniProt Q04912) — remaining activity: 102%.
For NEK1 (Homo sapiens, UniProt Q96PY6): remaining activity read 109%.
The remaining activity was 100% (TBK1 (Homo sapiens, UniProt Q9UHD2)).
For CSNK1G3 (Homo sapiens, UniProt Q9Y6M4): remaining activity read 104%.
For FGFR3 (Homo sapiens, UniProt P22607): remaining activity read 102%.
For ARAF (Homo sapiens, UniProt P10398): remaining activity read 98.4%.
It gave 92.4% for remaining activity (WEE1 (Homo sapiens, UniProt P30291)).
The remaining activity was 105% (JAK3 (Homo sapiens, UniProt P52333)).
TEK (Homo sapiens, UniProt Q02763) — remaining activity: 96.6%.
For NEK6 (Homo sapiens, UniProt Q9HC98): remaining activity read 95.6%.
For MAPK3 (Homo sapiens, UniProt P27361): remaining activity read 65.8%.
FGFR1 (Homo sapiens, UniProt P11362) — remaining activity: 94.7%.

Study 4
SMILES: CC(C)CC(=O)N1CCc2nc(-c3ccc(Br)cc3)nc(N(C)Cc3ccccc3)c2C1
Effect on: cell-free assay
Technique: competition with immobilised ligand
Tested at: 0.1 µM
The remaining binding was 100% (TSSK3 (Homo sapiens, UniProt Q96PN8)).
The remaining binding was 100% (RET (Homo sapiens, UniProt P07949, V804L)).
CLK4 (Homo sapiens, UniProt Q9HAZ1) — remaining binding: 92%.
The remaining binding was 100% (CDK13 (Homo sapiens, UniProt Q14004)).
The remaining binding was 58% (Tyrosine-protein kinase ABL1, non-phosphorylated (ABL1, Homo sapiens, UniProt P00519)).
The remaining binding was 100% (EPHA3 (Homo sapiens, UniProt P29320)).

A few entries again (study 4):
The remaining binding was 100% (RET (Homo sapiens, UniProt P07949, V804L)).
CLK4 (Homo sapiens, UniProt Q9HAZ1) — remaining binding: 92%.
The remaining binding was 100% (CDK13 (Homo sapiens, UniProt Q14004)).
The remaining binding was 58% (Tyrosine-protein kinase ABL1, non-phosphorylated (ABL1, Homo sapiens, UniProt P00519)).
The remaining binding was 100% (EPHA3 (Homo sapiens, UniProt P29320)).
